Assay results of several laboratories.
Compare with care: the assays were run in different laboratories. ± gives the spread as reported.
Melanocortin receptor 3: Melanocortin receptor 3 (Mus musculus, UniProt P33033)
ATP5F1B/ATP5F1A/ATP synthase F(1) complex subunit gamma, mitochondrial: ATP5F1B/ATP5F1A/ATP synthase F(1) complex subunit gamma, mitochondrial (Homo sapiens, UniProt P06576+P25705+P36542)
Gonadotropin-releasing hormone receptor: Gonadotropin-releasing hormone receptor (Rattus norvegicus, UniProt P30969)
lasR: Transcriptional activator protein LasR (lasR, Pseudomonas aeruginosa, UniProt P25084)

The EC50 of `CC(=O)N[C@@H](CCCNC(=N)N)C(=O)N[C@@H](CCCNC(=N)N)C(=O)N[C@H](Cc1ccc(I)cc1)C(=O)N[C@@H](C(N)=O)[C@@H](c1ccccc1)c1c[nH]c2ccccc12` is reported as 0.9 µM (Melanocortin receptor 3; cAMP, agonist, AlphaScreen).
The EC50 of `CC(=O)N1CCCC[C@H]1C(=O)NC(C)(C)C(=O)N1CCCC[C@H]1C(=O)NC(C)(C)C(=O)NC(C)(C)C(=O)N[C@@H](CC(C)C)C(=O)NCCC(=O)N[C@H](C)C(=O)NC(C)(C)C(=O)NC(C)(C)C(=O)N1CCCC[C@H]1C(=O)NC(C)(C)C(=O)NCC(=O)N[C@@H](CC(C)C)C(=O)NC(C)(C)C(=O)N[C@@H](CC(C)C)C[N+]1=C2CCCN2CCC1` is reported as 0.00086 ± 0.00024 µM (ATP5F1B/ATP5F1A/ATP synthase F(1) complex subunit gamma, mitochondrial; ATP production, inhibitor; permeabilized MCF7).
`CCCC[C@H](NC(=O)[C@H](Cc1ccccc1)NC(=O)[C@H](CCC(N)=O)NC(=O)[C@@H](NC(=O)[C@H](CCC(=O)O)NC(=O)C(C)(C)NC(=O)[C@@H](NC(=O)C(C)(C)N)C(C)C)[C@@H](C)CC)C(=O)N[C@@H](Cc1c[nH]cn1)C(=O)N[C@@H](C)C(=O)N[C@@H](CCCNC(=N)N)C(=O)N[C@@H](C)C(=O)N[C@@H](CCCCN)C(=O)N[C@@H](Cc1c[nH]c2ccccc12)C(=O)O` has an EC50 of 0.015 µM (PTH1R (Homo sapiens, UniProt Q03431); cAMP, agonist).
`C[C@@H]1NC(=O)[C@H](CC(N)=O)N2C[C@H](Cc3c[nH]c4ccccc34)NC(=O)[C@H](CSCC2=O)NC(=O)[C@H](CCCNC(=N)N)NC(=O)[C@@H](Cc2ccccc2)NC(=O)[C@H](Cc2c[nH]cn2)NC(=O)[C@@H](NC(=O)[C@@H](N)Cc2ccc(O)cc2)CSSC[C@@H](C(=O)N[C@@H](Cc2ccc(O)cc2)C(N)=O)NC(=O)[C@H](Cc2ccccc2)NC1=O` gave an EC50 of 0.255 µM (Melanocortin receptor 3; reporter gene, agonist).
For `NCCCC[C@@H](NC(=O)[C@H](Cc1c[nH]cn1)NC(=O)[C@H](CO)NC(=O)[C@H](Cc1c[nH]c2ccccc12)NC(=O)[C@H](Cc1c[nH]cn1)NC(=O)[C@@H]1CCC(=O)N1)C(=O)N[C@@H](Cc1c[nH]c2ccccc12)C(=O)N[C@@H](Cc1ccc(O)cc1)C(=O)N1CCC[C@H]1C(=O)NCC(N)=O`, the EC50 was 0.0017 ± 6e-05 µM (Gonadotropin-releasing hormone receptor; inositol phosphate accumulation, agonist; HEK293 expressing Gonadotropin-releasing hormone receptor; 60 min, 37 °C, added: 10 mM LiCl).
For `C[n+]1ccc(C(=O)NC2CCC3(O)C4Cc5ccc(O)c6c5C3(CC[N+]4(C)CC3CC3)C2O6)cc1` (centres unmarked), the EC50 was 0.24 µM (Oprm1 (Mus musculus, UniProt P42866); GTPγS binding, agonist, radiometric; cell membranes).
`CCN(Cc1ccccc1)C(=O)CCc1nc(CN2CCN(C(=O)Cc3ccc(OC)c(OC)c3)CC2)no1` has an EC50 of 2.56 ± 0.46 µM (Voltage-gated potassium channel, KQT; KCNQ2(Kv7.2)/KCNQ3(Kv7.3) (KCNQ3/KCNQ2, Homo sapiens, UniProt O43525+O43526); ion current, opener, whole-cell patch clamp; CHO stably expressing channel; shift of activation midpoint).
With `Cc1cc(O)c(I)c(C)c1C[C@H](N)C(=O)N[C@H](C)C(=O)N[C@@H](Cc1ccccc1)C(=O)N[C@@H](Cc1ccccc1)C(N)=O` the EC50 was over 0.5 µM (Oprd1 (Mus musculus, UniProt P32300); agonist).
`CCCCCCCCCC(=O)CC(=O)Nc1cccc(OC)c1` has an EC50 of over 100 µM (lasR; reporter gene, agonist; Escherichia coli, JLD271 with LasR plasmid).
`C=C[C@]12CCC(=O)C=C1CC[C@H]1[C@@H]3CC[C@H](C(C)=O)[C@@]3(C)CC[C@@H]12` has an EC50 of 0.0113 µM (Membrane progesterone receptor epsilon (Paqr9, Mus musculus, UniProt Q6TCG2); reporter gene, agonist; Paqr9-GFP cells; 6 h).
The EC50 of `CCCc1cc(Cc2ccccc2)cc2c1NCCC2NC(=O)C(N)Cc1c(C)cc(O)cc1C` (centres unmarked) is reported as 0.023 µM (Oprm1 (Rattus norvegicus, UniProt P33535); GTPγS binding, agonist, radiometric; cell membranes).
With `CS(=O)(=O)c1cccc(OCCCC(=O)NC2CC3CC3C2O)c1` (centres unmarked) the EC50 was over 100 µM (lasR (Pseudomonas aeruginosa, UniProt P25084, R61A); reporter gene, agonist; Escherichia coli lasB-lux reporter).
For `CC(=O)N1CCCC[C@H]1C(=O)NC(C)(C)C(=O)N1CCCC[C@H]1C(=O)NC(C)(C)C(=O)NC(C)(C)C(=O)N[C@@H](CC(C)C)C(=O)NCCC(=O)NCC(=O)NC(C)(C)C(=O)NC(C)(C)C(=O)N1CCCC[C@H]1C(=O)NC(C)(C)C(=O)NCC(=O)N[C@@H](CC(C)C)C(=O)NC(C)(C)C(=O)N[C@@H](CC(C)C)C[N+]1=C2CCCN2CCC1`, the EC50 was 0.0012 ± 0.0003 µM (ATP5F1B/ATP5F1A/ATP synthase F(1) complex subunit gamma, mitochondrial; ATP production, inhibitor; permeabilized MCF7).
`O=C(CCc1ccc(Br)cc1)N[C@H]1CCOC1=O` has an EC50 of 8.4 µM (lasR; reporter gene, agonist; Escherichia coli, JLD271 with LasR plasmid).
`C[C@@H]1NC(=O)[C@H](CC(N)=O)NC(=O)[C@H](Cc2c[nH]c3ccccc23)NC(=O)[C@H](CCCNC(=N)N)NC(=O)[C@@H](Cc2ccccc2)NC(=O)[C@H](Cc2c[nH]cn2)NC(=O)[C@@H](NC(=O)[C@@H](N)Cc2ccc(O)cc2)CCCn2cc(nn2)-c2cccc(c2)-c2cn(nn2)CCC[C@@H](C(=O)N[C@@H](Cc2ccc(O)cc2)C(N)=O)NC(=O)[C@H](Cc2ccccc2)NC1=O` has an EC50 of 1.94 ± 0.687 µM (Melanocortin receptor 3; agonist).
For `O=C(CCc1ccc(C(F)(F)F)cc1)N[C@H]1CCOC1=O`, the EC50 was 0.65 µM (lasR; reporter gene, agonist; Escherichia coli, JLD271 with LasR plasmid).
For `CC(=O)N1CCCC[C@H]1C(=O)NC(C)(C)C(=O)N1CCCC[C@H]1C(=O)NC(C)(C)C(=O)NC(C)(C)C(=O)N[C@@H](CC(C)C)C(=O)NC[C@@H](C)C(=O)NCC(=O)NC(C)(C)C(=O)NC(C)(C)C(=O)N1CCCC[C@H]1C(=O)NC(C)(C)C(=O)NCC(=O)N[C@@H](CC(C)C)C(=O)NC(C)(C)C(=O)N[C@@H](CC(C)C)C[N+]1=C2CCCN2CCC1`, the EC50 was 0.0011 ± 0.0001 µM (ATP5F1B/ATP5F1A/ATP synthase F(1) complex subunit gamma, mitochondrial; ATP production, inhibitor; permeabilized MCF7).
With `Cc1cc(C2=CCN(CC3OCCO3)CC2)cc([N+](=O)[O-])c1N` the EC50 was 8.13 µM (HTR2B (Homo sapiens, UniProt P41595); β-arrestin recruitment, agonist).
The EC50 of `Cc1cc(O)cc(C)c1CC(N)C(=O)NC1CCNc2c(C(=O)NCc3ccccc3)cc(Cc3ccccc3)cc21` (centres unmarked) is reported as 0.0034 µM (Oprm1 (Rattus norvegicus, UniProt P33535); GTPγS binding, agonist, radiometric; cell membranes).
The EC50 of `N[C@H](C(=O)N1CCCC1)C1CCN(c2nccc3c(-c4ncc(Cl)cc4Cl)cccc23)CC1` is reported as 2.04 µM (PADI2 (Homo sapiens, UniProt Q9Y2J8); thermal stability).
With `CCCCCC(=O)CC(=O)N[C@H]1CCOC1=O` the EC50 was 4.5 µM (lasR; reporter gene, agonist; Escherichia coli, JLD271 with LasR plasmid).
`Cc1cc(O)cc(C)c1CC(N)C(=O)NC1CCNc2c(Cc3ccccc3)cccc21` (centres unmarked) has an EC50 of 1.2 µM (Oprm1 (Rattus norvegicus, UniProt P33535); GTPγS binding, agonist, radiometric; cell membranes).
`CSCC[C@H](NC(=O)[C@H](CC(C)C)NC(=O)CNC(=O)[C@H](Cc1ccccc1)NC(=O)[C@H](Cc1ccccc1)NC(=O)[C@@H]1CCC(=O)N1)C(N)=O` gave an EC50 of 0.001 µM (TACR3 (Homo sapiens, UniProt P29371); β-arrestin recruitment, agonist).
`CC(=O)N[C@@H](CCCNC(=N)N)C(=O)N[C@@H](CCCNC(=N)N)C(=O)N[C@H](C(=O)N1Cc2ccccc2C[C@H]1C(N)=O)[C@H](c1ccccc1)c1c[nH]c2ccccc12` gave an EC50 of over 100 µM (Melanocortin receptor 5 (Mus musculus, UniProt P41149); cAMP, agonist, AlphaScreen).
`CC(=O)N[C@@H](Cc1ccc(O)cc1)C(=O)N[C@@H](CCCNC(=N)NC(=O)NCCCCN)C(=O)N[C@@H](CC(C)C)C(=O)N[C@@H](CCCNC(=N)N)C(=O)N[C@@H](Cc1ccc(O)cc1)C(N)=O` has an EC50 of 1.07 ± 0.52 µM (NPY4R (Homo sapiens, UniProt P50391); β-arrestin 1 recruitment, agonist; HEK293T).
`CC(C)C[C@H](NC(=O)[C@@H](CCCCN)NC(=O)[C@H](Cc1c[nH]cn1)NC(=O)[C@H](CO)NC(=O)[C@H](Cc1c[nH]c2ccccc12)NC(=O)[C@H](Cc1c[nH]cn1)NC(=O)[C@@H]1CCC(=O)N1)C(=O)N[C@@H](CCCNC(=N)N)C(=O)N1CCC[C@H]1C(=O)NCC(N)=O` gave an EC50 of 0.0125 ± 0.0017 µM (Gonadotropin-releasing hormone receptor; inositol phosphate accumulation, agonist; HEK293 expressing Gonadotropin-releasing hormone receptor; 60 min, 37 °C, added: 10 mM LiCl).

Some of these lines once more:
For `NCCCC[C@@H](NC(=O)[C@H](Cc1c[nH]cn1)NC(=O)[C@H](CO)NC(=O)[C@H](Cc1c[nH]c2ccccc12)NC(=O)[C@H](Cc1c[nH]cn1)NC(=O)[C@@H]1CCC(=O)N1)C(=O)N[C@@H](Cc1c[nH]c2ccccc12)C(=O)N[C@@H](Cc1ccc(O)cc1)C(=O)N1CCC[C@H]1C(=O)NCC(N)=O`, the EC50 was 0.0017 ± 6e-05 µM (Gonadotropin-releasing hormone receptor; inositol phosphate accumulation, agonist; HEK293 expressing Gonadotropin-releasing hormone receptor; 60 min, 37 °C, added: 10 mM LiCl).
`CC(=O)N[C@@H](Cc1ccc(O)cc1)C(=O)N[C@@H](CCCNC(=N)NC(=O)NCCCCN)C(=O)N[C@@H](CC(C)C)C(=O)N[C@@H](CCCNC(=N)N)C(=O)N[C@@H](Cc1ccc(O)cc1)C(N)=O` has an EC50 of 1.07 ± 0.52 µM (NPY4R (Homo sapiens, UniProt P50391); β-arrestin 1 recruitment, agonist; HEK293T).
The EC50 of `Cc1cc(O)cc(C)c1CC(N)C(=O)NC1CCNc2c(C(=O)NCc3ccccc3)cc(Cc3ccccc3)cc21` (centres unmarked) is reported as 0.0034 µM (Oprm1 (Rattus norvegicus, UniProt P33535); GTPγS binding, agonist, radiometric; cell membranes).
